Experimental data collected from several papers.
Every numbered part comes from another study and shows a few of its results, in no order.

Set 1
Target: Fragile X messenger ribonucleoprotein 1, C-terminal low-complexity region (Fmr1, Mus musculus, UniProt P35922)
Technique: RNA Bind-n-Seq
Form: RNA
Sample: in vitro
Concentration: 200 nM
Notes: whole 134-nt RNA, ends assumed
With: 150 mM LiCl
Baseline: input library
Direction: higher = stronger binding
Each molecule: 7-deaza-guanosine replaces G
Constant ends, left off below: GGGAGUUCUACAGUCCGACGAUC … UGGAAUUCUCGGGUGUCAAGG
| Sequence | log2 enrichment |
| --- | --- |
| GCAGGAAGUAAAAACAAAUGGAAAUGCUUCGGAUAGUGGCAGGGGUGGGGGUUGCUAAGGAAAGGGUGGGAUGGGAGUGGGUAAACAGUU | 1.03 |
| UCCUGUGCUACACAUCGUAUGUACCGAAUCGGGAAAAAAAGGGAAAGGGAAAAAAAGGGAAAGUAUUAUGUUACGCCGUUCGGAUCUGCA | 0.74 |
| CCUCAAGUCCUGUGCUACACAUCGUAUGUACCGAAUCGGCCGGCCGGCCGGGGAAAGUAUUAUGUUACGCCGUUCGGAUCUGCACUUCCA | 0.0491 |
| CCUGUGCUACACAUCGUAUGUACCGAAUCGGGGCCCCCCGGCCCCCCGGGCCCCCCGGGGAAAGUAUUAUGUUACGCCGUUCGGAUCUGC | -0.924 |
| UUAUAAUUGAUGAUCAUCCUGAAGUAACAGUAAUUGAAGAUCCCCAGUCAAAUUUGAAUGAUGAUGGUUUUACUGAAGUGGUAUCCAAAA | -2.53 |
| AGUCCUGUGCUACACAUCGUAUGUACCGAAUCAAACCCCCAAACCCAAAUUUUUAAAAAAGUAUUAUGUUACGCCGUUCGGAUCUGCACU | 1.13 |
| UCUUGUAUGACUUAACCCCUGUUUCUAAUACAGGGGCCGCUCUCCUCAGCCUCCUGCUGAAGAGGAUGAAGAUGACUUUGAUGAUACCCU | -0.587 |
| UGUGCUACACAUCGUAUGUACCGAAUCGGUUUUUUUGGGGUUUUUUUGGGGUUUUUUUGGGGAAAGUAUUAUGUUACGCCGUUCGGAUCU | 1.75 |
| UCCUGUGCUACACAUCGUAUGUACCGAAUCAAACCCCCCCAAAUUUAAAUUUUUUUAAAAAAGUAUUAUGUUACGCCGUUCGGAUCUGCA | 1.96 |
| AGUCCUGUGCUACACAUCGUAUGUACCGAAUCGGGGCCCCGGCCCCGGGGCCCCGGGGAAAGUAUUAUGUUACGCCGUUCGGAUCUGCAC | -1.71 |
| UCAAGUCCUGUGCUACACAUCGUAUGUACCGAAUCGGCCCGGCCCGGGCCCGGGAAAGUAUUAUGUUACGCCGUUCGGAUCUGCACUUCC | -1.27 |

Set 2
Target: Interferon regulatory factor 7, full length, phosphomimetic (IRF7, Homo sapiens, UniProt Q92985, residues 1-503, S471D/S472D/S475D/S476D/S477D/S483D/S484D/S487D)
Sequence of UniProt Q92985 (whole entry, unmodified, looked up): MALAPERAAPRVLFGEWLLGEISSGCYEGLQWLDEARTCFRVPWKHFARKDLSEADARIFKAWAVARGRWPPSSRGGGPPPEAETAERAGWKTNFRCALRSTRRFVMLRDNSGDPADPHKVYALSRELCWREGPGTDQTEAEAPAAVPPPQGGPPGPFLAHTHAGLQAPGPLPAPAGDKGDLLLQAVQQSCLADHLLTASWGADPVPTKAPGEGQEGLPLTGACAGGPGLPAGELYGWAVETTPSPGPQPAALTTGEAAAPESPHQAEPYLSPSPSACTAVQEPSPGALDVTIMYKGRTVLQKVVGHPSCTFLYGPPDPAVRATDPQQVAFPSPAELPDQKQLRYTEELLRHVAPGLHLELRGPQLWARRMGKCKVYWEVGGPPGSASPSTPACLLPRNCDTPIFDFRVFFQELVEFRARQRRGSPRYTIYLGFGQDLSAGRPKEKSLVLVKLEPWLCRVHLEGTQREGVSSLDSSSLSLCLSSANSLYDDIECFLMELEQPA
Technique: protein-binding microarray
Form: double-stranded DNA, one strand shown
Sample: in vitro
Concentration: 2200 nM top
Notes: 60-bp whole probe
With: salmon DNA 0.4 mg/ml
Baseline: random background probes
Direction: higher = stronger binding
Constant ends, left off below: GCCTAGCAC … GTCTTGATTCGCTTGACGCTGCTG
| Sequence | fitted relative affinity [z-score] |
| --- | --- |
| TTAGGTTTCGGGACAGGGTTAGTGCTA | 3.75 |
| ACAGGAGTGTTTCTCAGTTTGTGCTAG | 0.586 |
| GTAGGTATCGACACTGGGTTAGTGCTA | -0.0992 |
| GACGATTCCGGGACTGGAGACGTGCTA | -0.142 |
| TCAGCTCTGATGTTGGGACTGTGCTAG | -0.0699 |
| TCAAGACTTGATTTTGGACTGTGCTAG | -0.0879 |
| GATGGACTGGGTATCGGGACGTGCTAG | -0.806 |
| TAAGGACTGGACTTTCGGTTAGTGCTA | 4.98 |
| TTAGATTTCGAGTTTCGATTAGTGCTA | 6.2 |
| GACGATATCGGGACTCGAGACGTGCTA | 0.0656 |
| TGGGAAATTCCTCTGAGGCAGTGCTAG | -0.735 |
| GACGGTCTCCTTTTCCTGACGTGCTAG | 1.72 |
| GACGGTTTCTGGTTTCGGGACGTGCTA | 6.3 |
| TTAGGTTCCGTTTTCGGTTAGTGCTAG | 8.63 |
| AGATATCTGCACTCTCATGTGTGCTAG | 0.732 |
| GACGGTATGGGTATCGGGACGTGCTAG | -0.483 |
| GACGGACTGCTTCTCCTTACGTGCTAG | 0.806 |
| TTAGAACTGAATTTCGATTAGTGCTAG | 1.82 |
| TGTCCTTTTCTTTACTGATGGTGCTAG | 2.41 |

Set 3
Target: RNA binding protein fox-1 homolog 2, RRM domain, GST-SBP tag (RBFOX2, Homo sapiens, UniProt O43251-10, residues 100-194)
Technique: RNA Bind-n-Seq
Form: RNA
Sample: in vitro
Concentration: 365 nM
Notes: natural RNA segment, single round, ends assumed
Baseline: no-protein control
Direction: higher = stronger binding
Constant ends, left off below: GGGAGUUCUACAGUCCGACGAUC … UGGAAUUCUCGGGUGCCAA
Construct (chain): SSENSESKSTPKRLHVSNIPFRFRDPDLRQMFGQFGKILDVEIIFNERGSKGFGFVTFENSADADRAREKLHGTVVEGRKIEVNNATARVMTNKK
| Sequence | RBNS enrichment (R) |
| --- | --- |
| UUAAAAUCCCCUUCGCACUGCAGCAGUGCCCACCCCCUUCAUGUGAUUGUACAGUAUUCAAACUUUUUCUUAUGUACAGUAAACUUUACCAUAUGGCAAAGGCCUUUAUU | 0.609 |
| CCUCCUUCCCCGUACUUUGUCCCGUGGCAUUUCAAUUCCUGGCCCUGUUCUCCUCCCCAAGUCGGCACCCUUUAACUCAUGAGGAGGGAAAAGAGUGCCUAAGCGGGGGU | 0.69 |
| UGUAAACUAUCCCCACCCAGGGCCAGCCAUUAUCACCAGACCUCUUCUGGGCCUGGCUGUGAAGCCCUGUUUUUGGUAUUCAGAAUGGAUCUUUAAGGCUCAGAUGGGCU | 0.255 |
| UGGAUAAGUUACAUCGGGCUUCAUCAUCUAUACCUCCAUUUUUUCCUCCAGUUUUUAAUUUACUUUCGGAGUUUGUGUUGAUUUUGAUGGCACGUGACUUUUAAGCAGUA | 1.26 |
| CUCAAGUUCUUUCUCUUGGUUAGUCCAGCACACCACUUUGUUCUCUUGGGCCGUAUCUGCUGUGUCACAGGACAAACACUAGGUCUUAUACAGCCCCCUUUUUUCCCCCU | 0.912 |
| AUAAAAAUGUUAACCAGAAGGUAACCCUGAGUGUGAUUGUGAGAGAGACACGCCUUUUUACUAGUUCAUUUGCAUUUAAAUCAGUGAUCCUGUUCUGUGGCAUUCAUGAA | 1.25 |
| UAUCUGGAAAAUUCCAGAGCUAUUAUUUACUCCUUACCAAGGGAAGUUACUUCUUGUAAAAACUUUUAAGCCAUUUAUCAACAAGUUCUUGUUGACUCAGGGCAUAAUGA | 0.371 |
| ACCUCAAGGCUUUUUUCUUCUUAUUGUAAAUACACUUUACGUGAAUACAGUCUAAGUGAAGAAAAUAAAUAAAAGGAAGAGGUUUAUAACUUGCUCUAUAUCUGUACAGA | 0.328 |
| AUUAGGCAAUACCCUUGUUAAUUGCCCUUUGGCAACUAACUUAACCAUGUGCUUCCCACACAGUACAUCAGGAAAACUUACAGGGCAAUAUUUUUAACUUGGGGCAGGAA | 0.409 |
| CUUCCUUGACAUCCAGUUCCUCCUUCAGGCUCAAACACCACCUCCUUUCUUCAGGACCUGCACUUAAUGUUUGAGGCUGUCUCUCCAGUCCCUCUCAGCAGGAGGGGUAA | 0.725 |
| UUCUCCUUGUUAUUCAUUUUGGGCUUUUUGAUGAAACCACCAGGGCAUCACAUAUACUAAGCAUGUGCUCUACCAUCAUGCUAUGCUUCCAGCUCAGGGGGGCACUUUUA | 1.29 |
| GAGCAGCUCCUUGAAGAGAUUUACCUUCAGCUUAUUUGGUAACCACUGCUAAUAACUAAAAUGUUCUCAGCUUGGAAUAAUGGACUCUGAAGUCUCUAUUUUCCAAGUUG | 0.317 |

Set 4
Target: Histone acetyltransferase KAT6A, both winged helices, GST fusion (KAT6A, Homo sapiens, UniProt Q92794, residues 1-181)
Technique: protein binding microarray
Form: double-stranded DNA, one strand shown
Sample: in vitro
Concentration: not given
Notes: 8-mer, flanks averaged, mean of 2 arrays, mostly near background
Baseline: not given
Direction: higher = stronger binding
Target sequence (chain): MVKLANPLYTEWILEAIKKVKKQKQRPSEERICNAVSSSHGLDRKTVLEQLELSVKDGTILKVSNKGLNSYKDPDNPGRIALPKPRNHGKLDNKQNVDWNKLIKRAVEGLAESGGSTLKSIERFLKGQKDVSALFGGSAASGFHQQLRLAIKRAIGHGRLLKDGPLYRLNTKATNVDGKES
| Sequence | E-score |
| --- | --- |
| CTTAGATA | 0.00651 |
| ATTCCCAC | -0.155 |
| TGATACCA | -0.0749 |
| CAGAGATC | -0.196 |
| GTACGGGA | 0.261 |
| GTCCTTCA | 0.029 |
| CTATCTAC | -0.166 |
| GAAATAAA | -0.00231 |
| ATAGTACA | -0.0907 |
| AAGATAAG | -0.146 |
| ACGAAGCC | -0.0224 |
| CGGGTCTA | 0.157 |
| CGGCGTTA | 0.273 |
| ATCAAGTA | -0.0592 |
| AGGACAAG | -0.194 |
| ACTCAACA | -0.0671 |
| GAACTACA | -0.0595 |
| CACTCCTC | -0.272 |
| GCTGCGAC | 0.0827 |
| CAGTGACG | 0.0054 |
| AACTAAGG | -0.102 |
| AAGCTGGT | -0.0644 |
| CCCTCCAC | -0.211 |
| AATTCCTG | -0.0171 |
| AGTCCATC | -0.00019 |

Some of these lines once more (set 3):
| Sequence | RBNS enrichment (R) |
| --- | --- |
| AUAAAAAUGUUAACCAGAAGGUAACCCUGAGUGUGAUUGUGAGAGAGACACGCCUUUUUACUAGUUCAUUUGCAUUUAAAUCAGUGAUCCUGUUCUGUGGCAUUCAUGAA | 1.25 |
| UAUCUGGAAAAUUCCAGAGCUAUUAUUUACUCCUUACCAAGGGAAGUUACUUCUUGUAAAAACUUUUAAGCCAUUUAUCAACAAGUUCUUGUUGACUCAGGGCAUAAUGA | 0.371 |
| ACCUCAAGGCUUUUUUCUUCUUAUUGUAAAUACACUUUACGUGAAUACAGUCUAAGUGAAGAAAAUAAAUAAAAGGAAGAGGUUUAUAACUUGCUCUAUAUCUGUACAGA | 0.328 |
| AUUAGGCAAUACCCUUGUUAAUUGCCCUUUGGCAACUAACUUAACCAUGUGCUUCCCACACAGUACAUCAGGAAAACUUACAGGGCAAUAUUUUUAACUUGGGGCAGGAA | 0.409 |
| CUUCCUUGACAUCCAGUUCCUCCUUCAGGCUCAAACACCACCUCCUUUCUUCAGGACCUGCACUUAAUGUUUGAGGCUGUCUCUCCAGUCCCUCUCAGCAGGAGGGGUAA | 0.725 |
| UUCUCCUUGUUAUUCAUUUUGGGCUUUUUGAUGAAACCACCAGGGCAUCACAUAUACUAAGCAUGUGCUCUACCAUCAUGCUAUGCUUCCAGCUCAGGGGGGCACUUUUA | 1.29 |
